Assay results from different studies.
“And” joins repeats or separate records; there may be more than shown.
Target: Activin receptor type-1B (ACVR1B, Homo sapiens, UniProt P36896)

SMILES	test	setting	scale	measurement	value
C=CC(=O)N1Cc2nc(-c3cc(-c4cc(Cl)cnc4Cl)c(F)cc3F)n(-c3ccncn3)c2C1	cell-free assay	1 µM		inhibition	-3.1%
Cc1ccc(-c2c(/C=C(\C#N)C(=O)NC(C)C)n(CCCO)c3ncnc(N)c23)cc1	cell-free assay, competition with immobilised ligand	1 µM		remaining binding	72%
COCC12C(=O)NC3C4(C(OC)CC1O)C1CC5(O)C(OC)C(O)C(OC(C)=O)(C1C5OC(=O)c1ccccc1)C3(O)C(OC)C24 (stereo not shown)	kinase activity, inhibitor, ProQinase kinase profiling	25 µM	baseline: control	remaining activity	105% and 103%
COc1ccc(NC(=O)Nc2ccc3c(c2)C(=O)N(C(C)CO)CC(C)C(CN(C)Cc2ccc4c(c2)OCO4)O3)cc1 (stereo not shown)	kinase activity, KinaseProfiler	0.03 µM, species human	baseline: control	remaining activity	94%
O=C(Cc1ccc(OCc2ccccc2)cc1)NC1(C(=O)O)CCN(C(=O)c2ccc(-c3cccc(Cl)c3)cc2)CC1	enzyme activity, inhibitor	10 µM		activity vs control	91%
NC(=O)[C@@H](O)C[C@H]1CCc2sc3ncnc(O[C@H]4CC[C@H](N5CCOCC5)CC4)c3c21	enzyme activity, inhibitor	10 µM		inhibition	0%
CNC(=O)C[C@H](Cc1ccc(C#N)cc1)NC(=O)c1cc(-c2ccc(CN[C@H](C)c3ccc(C)cc3)o2)ccc1Cl	enzyme activity, inhibitor	1 µM		activity vs control	92%
CCN1CCN(Cc2ccc(C(=O)Nc3ccc(C)c(NCc4cnc5[nH]ccc5c4OC)c3)cc2C(F)(F)F)CC1	binding, competition with immobilised ligand	1 µM		remaining binding	100%
CN1CCN(Cc2ccc(NC(=O)c3cccc(C#Cc4cnc(N)c5ncccc45)c3)cc2C(F)(F)F)CC1	cell-free assay, competition with immobilised ligand	50 nM		remaining binding	100%
COc1cc(Nc2nc(C)cc(-c3cnn4nc(OC)ccc34)n2)cc(C(F)(F)F)c1	inhibitor	1 µM	baseline: control	remaining activity	100%
CC(=O)N1c2ccc(-c3ccc(CNC(=O)c4cn5cc(-c6cnc(N)nc6)nc(N6CCOCC6)c5n4)cc3)cc2CC[C@@H]1C	binding, competition with immobilised ligand	10 µM		remaining binding	89%
Cc1cnc2nc1Nc1cccc(c1)COC/C=C/COCc1cc(ccc1OCCN1CCOCC1)N2	binding	0.1 µM		remaining binding	98%
COc1c(Cl)cccc1Nc1c(-c2ccncc2C#C[C@@]2(C)CCCN2C(=O)/C=C/CN(C)C)[nH]c2c1C(=O)NCC2	cell-free assay, competition with immobilised ligand	3 µM		remaining binding	91%
CNC1C[S+]2CC[S+]3CC[S+](C1)[Ru-4]321([N]=C=S)[n]2c3ccc(OC)cc3c3c4c(c5cc(F)c[n+]1c5c32)C(=O)NC4=O (stereo not shown)	KinomeScan	0.1 µM	baseline: untreated	remaining binding	92%
CC(C)=CC1OC(C)(C)C2C=C3C(=O)C(Cl)=CC(O)C3C3C(O)C4OC4C(=O)C132 (stereo not shown)	cell-free assay, competition with immobilised ligand	10 µM		remaining binding	95%
C=C1CCCCCCCCCC(CO)C1=O (stereo not shown)	cell-free assay, competition with immobilised ligand	10 µM		remaining binding	96%

Repeated from above:
SMILES	test	setting	scale	measurement	value
COc1cc(Nc2nc(C)cc(-c3cnn4nc(OC)ccc34)n2)cc(C(F)(F)F)c1	inhibitor	1 µM	baseline: control	remaining activity	100%
